Measured values pooled from the literature.
Parts stem from different laboratories: compare values within a part only. Positions count from the first letter of the parent shown.

Sample 1
Target: ABI1, truncated, D143A, DHFR fusion (Arabidopsis thaliana)
Technique: DHFR PCA, deep sequencing
Medium: yeast
Setting: methotrexate growth selection, single substitutions
With: (+)-ABA 0.11 µM
Relative to: wild-type fitted maximum
Reading: higher = stronger binding
Endpoint: relative binding score
Starting sequence: PYL1, truncated, DHFR fusion (Arabidopsis thaliana); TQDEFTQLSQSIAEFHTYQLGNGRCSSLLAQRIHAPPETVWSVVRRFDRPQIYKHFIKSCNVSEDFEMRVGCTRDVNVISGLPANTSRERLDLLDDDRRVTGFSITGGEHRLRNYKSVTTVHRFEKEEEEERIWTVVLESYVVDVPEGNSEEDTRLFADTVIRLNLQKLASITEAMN
Y18P: 12%
E174A: 3.23%
L91A: -0.118%
D3I: 17.6%
K58W: 0.4%
L20Y: 23.2%
E151V: 49.1%
L20I: 39.9%
S117G: 1.61%
E67I: 26.4%
F15E: -1.04%
T73C: 24.1%
L112R: -5%
T101D: -9.09%
T6Q: 51.6%
G21W: 6.96%

Sample 2
Target: Sal-like protein 4, full length isoform B (SALL4, Homo sapiens, UniProt Q9UJQ4-2, residues 1-616)
Technique: universal PBM
Molecule type: double-stranded DNA, one strand shown
Medium: in vitro
Tested at: not given
Setting: 8-mer, flanks averaged, mean of replicates
Reading: higher = stronger binding
Endpoint: E-score
CAGTATTA: 0.155
AGAAGCCT: 0.0476
CGACATTC: -0.0489
ATACAACC: 0.0351
GAGGCCCC: -0.316
AAACTTGG: 0.0615
GAGCAGGC: -0.279
AACTAAAT: 0.154
CCGCGAGA: -0.243
ACTATTAT: 0.351
TATTTCAA: 0.384
TGCAGCAA: 0.0327
AGAGGGTG: -0.0729
GCTCAACC: -0.231
GTCACACA: -0.0112
CGAAGCAG: -0.178
CCCATGTC: -0.184

Sample 3
Target: CCNE1, cyclin fold, Cln2 fusion (human)
Technique: yeast growth competition, sequencing
Medium: yeast
Setting: strong parent motif
Relative to: not given
Reading: higher = stronger binding
Endpoint: normalised enrichment score
Starting sequence: INSM1 docking peptide (human); PKAIRKLHFEDEV; partner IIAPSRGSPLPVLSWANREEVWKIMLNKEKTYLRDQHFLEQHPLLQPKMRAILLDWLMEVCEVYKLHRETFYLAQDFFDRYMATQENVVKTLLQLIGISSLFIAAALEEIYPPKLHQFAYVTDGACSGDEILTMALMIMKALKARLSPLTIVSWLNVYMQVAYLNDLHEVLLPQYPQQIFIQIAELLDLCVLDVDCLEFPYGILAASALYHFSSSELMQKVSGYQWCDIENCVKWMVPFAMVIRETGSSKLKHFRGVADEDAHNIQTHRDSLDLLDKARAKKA
PKAIRKLHFEDNV [E12N]: 3.97
PKAINKLHFEDEV [R5N]: -0.000731
PLAIRKLHFEDEV [K2L]: 3.42
PKAIRKLHFLDEV [E10L]: 2.12
PKSIRKLHFEDEV [A3S]: 0.963
PKAIRPLHFEDEV [K6P]: 0.283
PKAIRKLSFEDEV [H8S]: 4.53
PKAIRKLHFYDEV [E10Y]: 3.24
PKAIRKLHIEDEV [F9I]: -0.181
PKAIRKLMFEDEV [H8M]: 4.7
PMAIRKLHFEDEV [K2M]: 3.69
PKAIRKLHFSDEV [E10S]: 3.35
PKAIRKLHFWDEV [E10W]: 1.34
PKAIRKLHFEFEV [D11F]: 4.26
PKAKRKLHFEDEV [I4K]: 6.27
PKAIRKLHFQDEV [E10Q]: 3.03
PAAIRKLHFEDEV [K2A]: 3.84
PKAIRKLHFEDKV [E12K]: 3.07
PKAIWKLHFEDEV [R5W]: 0.149
PKALRKLHFEDEV [I4L]: 1.88
PKAMRKLHFEDEV [I4M]: 3.95
PKAIRKLHKEDEV [F9K]: -0.111
PKAIRKNHFEDEV [L7N]: -0.00931
PKAIRKLHFCDEV [E10C]: 3.15
PKAIRKLKFEDEV [H8K]: 4.44

Sample 4
Target: Phosphate system positive regulatory protein PHO4, full length, GST-tagged (PHO4, Saccharomyces cerevisiae, UniProt P07270, residues 1-312)
UniProt P07270, sequence (whole entry, looked up): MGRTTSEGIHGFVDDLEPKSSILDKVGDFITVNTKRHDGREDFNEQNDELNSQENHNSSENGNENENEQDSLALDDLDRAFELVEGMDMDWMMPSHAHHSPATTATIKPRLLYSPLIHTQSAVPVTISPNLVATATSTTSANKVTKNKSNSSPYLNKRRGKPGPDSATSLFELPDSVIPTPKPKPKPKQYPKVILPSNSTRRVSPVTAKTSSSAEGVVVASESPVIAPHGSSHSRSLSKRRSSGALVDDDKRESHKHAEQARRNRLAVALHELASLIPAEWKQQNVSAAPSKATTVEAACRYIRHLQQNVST
Technique: competition protein-binding microarray
Molecule type: double-stranded DNA, one strand shown
Medium: in vitro
Tested at: 2 µM
Setting: whole 60-bp probe, lowest competitor level
With: Cbf1 competitor, 0.05 µM
Reading: higher = stronger binding
Endpoint: fluorescence intensity
All sequences stand within: … GTCTTGATTCGCTTGACGCTGCTG
CTTTCCCGATCTTTTCACGTGTATTTAGCACATTTG: 15000 a.u.
CTTCTGTAAATTTGGCATGTGGGTGGACGCGCCCCG: 10600 a.u.
GCATTACGAGAGAAGTGCGTGATGGCTGGAAACTAG: 6420 a.u.
TGCGCAACAACTTGTCACGAAACTTTATGTCTAGAA: 3780 a.u.
CTCTAATTTTACCATCACGTGCCGATTCTAGTCATT: 20700 a.u.
TACCCTTGCACCTTCCACAACCATATTTTTGGTCTA: 4370 a.u.
GTCTTGTCTCATTTTCACGTGGCTTTCCCCACTTCA: 12100 a.u.
CATACCCAACCTTGTGATGTGGGTGAAGATATTTGT: 5290 a.u.
TCAGTTCAAGCAGGGAACGTGCCAGACATGGCTAGT: 13700 a.u.
AAAGCGGTAATTTGCGTCGTGGGTGCAGATATCTAT: 7610 a.u.
ATTGAAAGCGCCCGGATCGTGCCAGTATTTACCACC: 9270 a.u.
GTCTTGTCTCATTGCACAGTGGGTGTCCCCACTTCA: 5170 a.u.
CAAATCGAAACCACCATCGTGTCCTTCCTTGGGAAC: 9080 a.u.
CTTCAACAACATCGGCACGGGAGTGGGATTTAGCGG: 9820 a.u.
CTAACGAAGGTTTGAGGTGTGGGTGACAAGCCAAGT: 4890 a.u.
TGCGCAACAACTTGGGAGGTGGGTGTATGTCTAGAA: 5230 a.u.
AGAAAGAAAGACGACCACGTGACGGGAACGAAGAGC: 13000 a.u.
AAACTAATGGATTGGCGCGTGTACTATATATATTCA: 9820 a.u.
CGTCCTAGCGATTGAATCGTGGGTGCCATGAGGAAG: 8560 a.u.
CAAGAGACTCGCGACCACGTGGAACGATCCAACTAC: 17200 a.u.
CATGGGGCGGTAGGGTTCGTGATGGTTTTTCTGCCC: 5580 a.u.
GTTAATTTATTCCATCACGGCTGTAATGTAACCAAC: 4500 a.u.
TTTACGCGCGGTGTTTTCGTGGCCGTACCGCATTGG: 4230 a.u.
TCGATGACAATTTTACACATGAAAAACGAACTATGT: 3970 a.u.

Sample 5
Target: Fragile X messenger ribonucleoprotein 1, C-terminal low-complexity region (Fmr1, Mus musculus, UniProt P35922)
Technique: RNA Bind-n-Seq
Molecule type: RNA
Medium: in vitro
Tested at: 200 nM
Setting: whole 134-nt RNA, ends assumed
With: 150 mM LiCl
Relative to: input library
Reading: higher = stronger binding
Endpoint: log2 enrichment
Library: 7-deaza-guanosine replaces G
All sequences stand within: GGGAGUUCUACAGUCCGACGAUC … UGGAAUUCUCGGGUGUCAAGG
UGGGAGGUGGAUUUUGUUUAUUUUUUUAGCUCAUUUCCAGGGGUGGGAAUUUUUUUUUAAUAUGUGUCAUGAAUAAUGUUGUUUUUGAAA: -0.13
CAAGUCCUGUGCUACACAUCGUAUGUACCGAAUCGGAAAGGUUUUUUUGGAAAGGAAAGUAUUAUGUUACGCCGUUCGGAUCUGCACUUC: -1.97
CACAGACAACACGCACCCACACAGACACAGAGGGAAGGGGUUGGGAUGGGGACAGGGUGCACAGCAGGGCGGGGUACGACCCCAGCCCCU: 1.39
AAGUCCUGUGCUACACAUCGUAUGUACCGAAUCGGAAAAAAAGGUGGAAAAAAAGGAAAGUAUUAUGUUACGCCGUUCGGAUCUGCACUU: -2.18
UCCUGUGCUACACAUCGUAUGUACCGAAUCGGCCCCCCGGGCCCCCCGGGGCCCCCCGGGAAAGUAUUAUGUUACGCCGUUCGGAUCUGC: -1.74
UGUGCUACACAUCGUAUGUACCGAAUCGGGGAAAAAAAGGGGAAAAAAAGGGGAAAAAAAGGGAAAGUAUUAUGUUACGCCGUUCGGAUC: 1.14
GCAGGAAGUAAAAACAAAUGGAAAUGCUUCGGAUAGUGGCAGGGGUGGGGGUUGCUAAGGAAAGGGUGGGAUGGGAGUGGGUAAAGAGCU: 1.54
GUCCUGUGCUACACAUCGUAUGUACCGAAUCGGGGUUUUUUUGGGGAAAGGGGAGGGGAAAGUAUUAUGUUACGCCGUUCGGAUCUGCAC: 0.13
GCAGGAAGUAAAAACAAAUGGAAAUGCUUCGGAUAGUGGCAGGGGUGGGGGUUGCAAAGGAAAGGGUGGGAUGGGAGUGGGUAAAGAGUU: 1.35
UUAGAUGAGUGACCGAGGAGGUGGCGUUCCUUUGAGGAAAAUUGACAGACUUUUCAACUACAUGUAUUCAACUGCACCAAGACCUCGUGU: -1.46
CCUGUGCUACACAUCGUAUGUACCGAAUCGGUUUUUUUGGUUUUUUUGGGUUUUUUUGGGAAAGUAUUAUGUUACGCCGUUCGGAUCUGC: -1.56

Repeated from above (sample 3):
PKALRKLHFEDEV [I4L]: 1.88
PKAIRKNHFEDEV [L7N]: -0.00931
PKAIRKLHFSDEV [E10S]: 3.35
PKAMRKLHFEDEV [I4M]: 3.95
PKAINKLHFEDEV [R5N]: -0.000731
PKAKRKLHFEDEV [I4K]: 6.27
PKAIRKLKFEDEV [H8K]: 4.44
PKAIRKLHFEDNV [E12N]: 3.97
PKAIRKLHIEDEV [F9I]: -0.181
PKAIRKLHFQDEV [E10Q]: 3.03
PKAIWKLHFEDEV [R5W]: 0.149
PKAIRKLMFEDEV [H8M]: 4.7
PKAIRKLHFLDEV [E10L]: 2.12
PKAIRKLHFEDKV [E12K]: 3.07
